# Published values collected from several papers.
# Numbered parts are unrelated; each lists some results of a single study. Substitutions count along the parent as printed.

# Block 1
# Target: CCNA1, cyclin fold, Cln2 fusion (human)
# Method: yeast growth competition, sequencing
# Medium: yeast
# Notes: strong parent motif
# Reference: not given
# Direction: higher = stronger binding
# Parent: E2F1 docking peptide (human); PPVKRRLDFETDH
Substitution,normalised enrichment score
PPVARRLDFETDH [K4A],1.08
PPVKRRLDGETDH [F9G],0.131
PHVKRRLDFETDH [P2H],1.9
PPWKRRLDFETDH [V3W],0.661
PKVKRRLDFETDH [P2K],2.09
PPVKRNLDFETDH [R6N],0.623
PPVKQRLDFETDH [R5Q],0.424
PPVKRRLDFYTDH [E10Y],1.48
PPVKNRLDFETDH [R5N],0.608
PPVKRDLDFETDH [R6D],0.0601
PPVKRRLCFETDH [D8C],1.51
PPVKKRLDFETDH [R5K],1.59
PPVKRRLRFETDH [D8R],1.3
PPVTRRLDFETDH [K4T],0.809
PQVKRRLDFETDH [P2Q],2.13
PPVKRQLDFETDH [R6Q],1.3
PPVKRRLDSETDH [F9S],0.248
PPVKRRLDFMTDH [E10M],1.86
PPEKRRLDFETDH [V3E],0.237
PPVKRRLKFETDH [D8K],1.26
PPVKRRLGFETDH [D8G],1.36
PPVVRRLDFETDH [K4V],1.34

# Block 2
# Target: ABI1, truncated, D143A, DHFR fusion (Arabidopsis thaliana)
# Method: DHFR PCA, deep sequencing
# Medium: yeast
# Notes: methotrexate growth selection, single substitutions
# Added: (+)-ABA 58 µM
# Reference: wild-type fitted maximum
# Direction: higher = stronger binding
# Parent: PYL1, truncated, DHFR fusion (Arabidopsis thaliana); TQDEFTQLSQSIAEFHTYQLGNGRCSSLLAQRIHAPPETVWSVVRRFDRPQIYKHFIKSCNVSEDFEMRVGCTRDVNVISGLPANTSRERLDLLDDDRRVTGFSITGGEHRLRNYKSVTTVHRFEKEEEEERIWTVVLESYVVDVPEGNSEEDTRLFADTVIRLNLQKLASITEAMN; partner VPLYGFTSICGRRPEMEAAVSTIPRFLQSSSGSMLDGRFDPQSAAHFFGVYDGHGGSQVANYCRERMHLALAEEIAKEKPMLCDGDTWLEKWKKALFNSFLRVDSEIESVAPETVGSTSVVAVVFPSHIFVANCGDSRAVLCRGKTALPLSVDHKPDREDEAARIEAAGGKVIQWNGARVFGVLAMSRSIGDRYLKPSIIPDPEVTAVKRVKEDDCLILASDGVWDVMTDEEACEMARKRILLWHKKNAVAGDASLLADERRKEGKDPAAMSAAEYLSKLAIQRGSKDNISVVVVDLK
Substitution,relative binding score [%]
L169I,19.5
G102M,37.1
S59Y,61.6
W41D,-15.2
G108P,-9.25
I12R,48.6
A30W,92.8
G107L,11.5
R49P,13.7
S59P,11.8
N149G,45.8
R24F,54.2
K116A,80
F15T,29.7
V161N,-6.89
V70I,82.1
I105G,-7.87
K54L,-3.87
G21P,83.6
S140C,0.879

# Block 3
# Target: Fragile X messenger ribonucleoprotein 1, C-terminal low-complexity region (Fmr1, Mus musculus, UniProt P35922)
# Method: RNA Bind-n-Seq
# Molecule type: RNA
# Medium: in vitro
# Tested at: 200 nM
# Notes: whole 134-nt RNA, ends assumed
# Added: 150 mM LiCl
# Reference: input library
# Direction: higher = stronger binding
# All molecules: 7-deaza-guanosine replaces G
# Shared flanks, not repeated: GGGAGUUCUACAGUCCGACGAUC … UGGAAUUCUCGGGUGUCAAGG
Oligonucleotide,log2 enrichment
AAGUCCUGUGCUACACAUCGUAUGUACCGAAUCGGGGAAAGGGGAGGGGAAAGGGGAAAGUAUUAUGUUACGCCGUUCGGAUCUGCACUU,0.842
CAAGUCCUGUGCUACACAUCGUAUGUACCGAAUCGGGUUGGGGUUGGGGUUGGGGAAAGUAUUAUGUUACGCCGUUCGGAUCUGCACUUC,-0.0528
CACAGACAACACGCACCCACACAGACACAGAGGGAAGGGGUUGUGAUGGGGACAGGGUGCACAGCAGGGCGGGGUAGGACCCCAGCCCCU,-1.45
GUCCUGUGCUACACAUCGUAUGUACCGAAUCGGGGCCCCCGGGGCCCCCGGGCCCCCGGAAAGUAUUAUGUUACGCCGUUCGGAUCUGCA,-0.631
UGGGAGGUGGAUUUUGUUUAUUUUUUGAGCUCAUUUCCAGGGGUGGGAAUUUUUUUUUAAUAUGUGUCAUGAAUAAAGUUGUUUUUGAAA,0.499
ACCAUGCAGGUGGGCAUCAUUGGGAAGUGGGGCAAGGGGGGGAUAGGGAGGGGGGUAACACUUUGGGAACAGGUGGUCCCAGGUCGUUUC,1.31
AGUCCUGUGCUACACAUCGUAUGUACCGAAUCGGGAAAAAGGGUGGGAAAAAAAGGGAAAGUAUUAUGUUACGCCGUUCGGAUCUGCACU,-1.36
UCCUGUGCUACACAUCGUAUGUACCGAAUCGGGGCCCCCCGGGCCCCCCGGCCCCCCGGGAAAGUAUUAUGUUACGCCGUUCGGAUCUGC,-0.344
UUCCUCAAGUCCUGUGCUACACAUCGUAUGUACCGAAUCGGAGGAGGUGGAAAGUAUUAUGUUACGCCGUUCGGAUCUGCACUUCCAGCA,-2.85
CUGUGCUACACAUCGUAUGUACCGAAUCGGGGCCCCCCGGGGCCCCCCGGGCCCCCCGGGGAAAGUAUUAUGUUACGCCGUUCGGAUCUG,-2.64
AGUCCUGUGCUACACAUCGUAUGUACCGAAUCGGUUUUUUUGGAAAAAGGUUUUUGGAAAGUAUUAUGUUACGCCGUUCGGAUCUGCACU,-3.56

# Block 4
# Target: RNA binding protein fox-1 homolog 2, RRM domain, GST-SBP tag (RBFOX2, Homo sapiens, UniProt O43251-10, residues 100-194)
# Method: RNA Bind-n-Seq
# Molecule type: RNA
# Medium: in vitro
# Tested at: 365 nM
# Notes: natural RNA segment, single round, ends assumed
# Reference: no-protein control
# Direction: higher = stronger binding
# Shared flanks, not repeated: GGGAGUUCUACAGUCCGACGAUC … UGGAAUUCUCGGGUGCCAA
# Construct (chain): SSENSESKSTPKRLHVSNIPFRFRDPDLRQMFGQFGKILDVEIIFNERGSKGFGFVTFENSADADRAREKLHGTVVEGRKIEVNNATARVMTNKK
Oligonucleotide,RBNS enrichment (R)
AGGAGUGCCACUUUCCAGCUCCACUUCAAAUUCCUUAAAAUAUAACUGAGAUUGCUGUGGGGAGGGAGGAGGGCAGAGGCUGCGGUUUGACUUUUUAAUUUUUCUUUUGU,0.574
GUUUCCUUUUAGACACAAACAAUAAAAUUAUUUUGAAGGCAAUGAGAAACUAAUCAAAGACUAAUCUCUGUUGGAGGUUGGGAAUAAUGUUUUGCCACUUCUGCAGACUG,0.308
CCCCCUCACUUCCCAAGACAACCCCCAGCUUCAGGUCCUCAUGGGGAGGGGAGGGCACGUUCUUGACACAUGGGAACUUCGCUCAGGAGGGCCUCCCCUUCCCCUCUCCC,0.707
CCUUCUCAUGCUGCCGGCUCAUCUGGGCCCAUAGAGUGGGCUUUGCCAGUUGCUGUUGCACAGGAGGCGAGAACAGCACACUUCAACCCCAGCUUGCUGGUCGGCUUUCC,0.378
UCCUUUGUAGCUUCAUAUGUGGCUUUUAAAAUGUCAUUUCUCUAGGGUAUCUUUUUAUAUCACAGCCUAGGACUCUUCCAUCUUAUAAUUACAAGCUGACAGUGUACAAU,0.316
ACUUUAGAGCCAAGGCCUGGCAGUCCUGCAGCCAGCCUCUGCUCGCAGCCGCAGACGGUCUGGACACCGCCGCAGGGGUGGGGUGAGGCGUCCCCCACCCUGCGGGACAG,0.33
UCACCGCUCAUCUGUGCCCGCGGCUACAAGAGGACAGCAAGGGUUUUCUUCAGAGUCUAUUUUUUCAGCAACAAGGACCCCAGUCUUCCUGCUGCUGCCAGGAAGAGCAG,1.76
UCAGUUUAGAUCUCAAAUAUAGGCUGAAAUCUCUUACCAAAGUGCGUUCCAGAUAAAAAUGAGACUUAGAAGACAGACUGGUCUAAUAUGCUCACUGGUCAUCACAUUCA,0.262
GCAGGAACCCUGGAAGAGAAGCGCACAUUUGGGAAGAGCACAUGCAGAUCCAGGCCUGUGGCUCGGCCCCGCUCAGCCCCAUAGUGGGUGGCAGCAGUGCUCUCUCCUGC,0.389
GGAAAUAGAGUAGCAGUUGAUAUUUCUAAAUUGUGACCAUUGUCCGAGAUUGCUUUGAGAACUGGUAGUUAUUCUCUUUAUGUUUGGAGGCAGCCAUUAGGCUGUAGGCC,2.09
CCCUCAGGUCUUAACCCUUCCCAGACCUGCAGCGAUUCCUGUCGACUCCCUUACACAGUAUUGAUCUUCUGACUGUGGAAACAACCUUCCUCUCACUUUCACACCUUUAA,1.21
CUGGAGGCCAGACUGGGCUGUAGUUAGCUUUUCAUCCCUAAAGAAGGCUCCUUUCCCUAAGGAACCAUAGAAGAGAGGAAGAAAACAAAGGGCAUGUGUGAGGGAAGCUG,1.81

# Block 5
# Substance: PhoQ, residues 284 288 289 292 302 303 TLMATV
# Method: Sort-seq
# Refers to: YFP reporter
# Medium: E. coli
# Notes: PhoQ-PhoP variant library
# Added: 10 µM Mg2+
# Reference: high Mg2+ state
# Direction: higher = stronger signaling
target,fold induction
"PhoP, residues 12 14 15 18 19 VGHWL (Escherichia coli, UniProt P23836)",1.39
"PhoP, residues 12 14 15 18 19 TPWTL (Escherichia coli, UniProt P23836)",26.5
"PhoP, residues 12 14 15 18 19 NFFVT (Escherichia coli, UniProt P23836)",2.57
"PhoP, residues 12 14 15 18 19 LHHYF (Escherichia coli, UniProt P23836)",13.5

# Some of these lines once more (block 2):
Substitution,relative binding score [%]
L169I,19.5
G102M,37.1
S59Y,61.6
W41D,-15.2
G108P,-9.25
I12R,48.6
A30W,92.8
G107L,11.5
R49P,13.7
S59P,11.8
N149G,45.8
